Measured values from different studies.
Protocols differ between the studies behind these lines. ± gives the spread as reported.

COc1ccc(CC[C@H]2OC(=O)[C@@H]3CCCCN3C(=O)C(=O)C(C)(C)COC(=O)C=CCCN(C)C(=O)[C@H](CO)N(C)C(=O)[C@H]3CCCN3C(=O)[C@H](CO)N(C)C(=O)[C@H](Cc3ccccc3)NC(=O)CCC(=O)Nc3cccc2c3)cc1OC — IC50 (HUVEC; thymidine uptake, inhibitor): 12.8 ± 3.1 nM
COC1CN([C@H]2CC[C@H]([C@@]3(C)Oc4c(Cl)cc(C(=O)NCc5c(SC)cc(C)[nH]c5=O)c(C)c4O3)CC2)C1 — log2 fold change (RNA-seq, measured: TMEM108 mouse homolog; mouse, HT-1376 xenograft, whole blood; dose not given; reference: vehicle): 2.6
Cc1ccc2c(Cl)cc(Cl)c([O-])c2n1.Cc1ccc2c(Cl)cc(Cl)c([O-])c2n1.[Co+2].c1ccc(-c2ccnc3c2ccc2c(-c4ccccc4)ccnc23)cc1 — IC50 (HL-7702 normal hepatocytes; cell viability, MTT; 48 h): 65800 ± 1770 nM
O=C(O)C(CO)NCc1cc(Cl)c(OCc2cccc(-c3ccccc3)c2Br)cc1OCc1cccnc1 (stereo not shown) — IC50 (human PBMC; MTT): > 10000 nM
Cc1cc([C@H](C(=O)N2C[C@H](O)C[C@H]2C(=O)N[C@@H](CC(=O)N2CCC(N3CCC(C#Cc4ccc(C(=O)N[C@H]5C(C)(C)[C@H](Oc6ccc(C#N)c(Cl)c6)C5(C)C)cc4)CC3)CC2)c2ccc(-c3scnc3C)cc2)C(C)C)on1 — IC50 (MDA-MB-453; cell growth or viability, CCK-8; 7 days): 230 nM
CNS(=O)(=O)Nc1nccc(Cc2c(C)c3ccc(Oc4ncccc4F)cc3oc2=O)c1F — IC50 (NCI-H526; cell viability; 7 days): > 1000 nM
CC[C@H](C)[C@H](NC(=O)[C@H](CCCCN)NC(=O)[C@H]1CCC[C@@H]1NC(=O)[C@H](CC(C)C)NC(=O)CN)C(=O)N[C@H](CC(=O)N[C@@H](CCCCN)C(=O)N[C@@H](CCCCN)C(=O)N[C@H]1CCC[C@@H]1C(=O)N[C@@H](C)C(=O)N[C@@H](CCCCN)C(=O)N[C@@H](CO)CC(=O)N[C@@H](Cc1ccccc1)C(N)=O)[C@@H](C)CC — IC50 (HUVEC; cytotoxicity): 122 µg/mL
CC(=O)Oc1ccccc1C(=O)[O][Pt]([NH2])([NH2])([Cl])([Cl])[O]C(C)=O — IC50 (BCPAP; cell growth or viability, MTT; 72 h): 310 nM
NCC1OC(OC2C(CO)OC(OC3C(O)C(N)CC(N)C3OC3OC(CN)C(O)C(O)C3N)C2O)C(N)C(O)C1O (stereo not shown) — IC50 (ARPE-19; cytotoxicity, CCK-8; 48 h): > 100000 nM
O=C(CCCCCONC(=O)c1nc(-c2ccc(Cl)cc2)cs1)NO — IC50 (neonatal foreskin fibroblasts; cytotoxicity, sulforhodamine B; 72 h): 1480 nM
CCOc1cncc(-c2ccc(NC(=O)C3(c4ccnc(NS(=O)(=O)C5CC5)n4)CCOCC3)nc2)n1 — IC50 (C32; cell growth or viability, ATP luminescence; 72 h): 157 nM
O=C1C2=Nc3ccccc3CN2C(=S)N1[C@H]1CCCc2ccccc21 — IC50 (CCRF-CEM; cell growth or viability, resazurin; 72 h): 25100 nM
Cc1ccc([N+](=O)[O-])cc1S(=O)(=O)N(C)/N=C/c1cnc2ccc(Br)cn12 — IC50 (SF-295; MTS; NCI60 panel): 141 nM
O=C1C(Br)=C(Br)C(=O)c2ccccc21 — IC50 (MOLT-3; cell growth or viability, XTT): 3290 nM
Cn1ncc(-c2ccc3c(=O)[nH]nc(CN)c3c2)c1-c1c(F)c(Cl)cc(OC2CC2)c1C#N — IC50 (H4; cell viability; 120 h, relative IC50): 80 nM
CCCc1cc2cc(-n3nc(C(C)C)c4c3CC(C)(C)CC4=O)cc(N3CCC(O)CC3)c2c(=O)[nH]1 — IC50 (SK-OV-3; cell growth or viability, MTS): 8220 nM
O=C1/C(=N\c2ccc(Cl)cc2Br)c2ccccc2N1C(=O)c1ccccc1 — IC50 (L02; cell growth or viability, MTT; 48 h): > 100000 nM
COc1ccnc(-c2cc(OC)ccn2)c1.[Co+2].[O-]c1c(I)cc(I)c2cccnc12.[O-]c1c(I)cc(I)c2cccnc12 — IC50 (HL-7702 normal hepatocytes; cell viability, MTT; 48 h): 75800 ± 1150 nM
NC(=O)c1ccc(-c2ccccc2Cl)c2c3c([nH]c12)CCC(N)C3 (stereo not shown) — IC50 (HGC-27; cell growth or viability; 96 h): 22.1 nM
COc1ccc(CC[C@H]2OC(=O)[C@@H]3CCCCN3C(=O)C(=O)C(C)(C)COC(=O)C=CCCN(C)C(=O)[C@H](Cc3ccccc3)N(C)C(=O)[C@H]3CCCN3C(=O)[C@H](C)N(C)C(=O)[C@H](Cc3ccccc3)NC(=O)CCC(=O)Nc3cccc2c3)cc1OC — IC50 (HUVEC; thymidine uptake, inhibitor): 737 ± 130 nM
C[C@H](c1ccccc1)N1C(=O)C2=Nc3ccccc3CN2C1=S — IC50 (CCRF-CEM; resazurin; 72 h): 520 ± 10 nM
O=[N+]([O-])c1ccc(C=NNC(Nc2ccccc2)=[S+][Au-][Cl])o1 — IC50 (IMR-90; cell growth or viability, resazurin): 64100 nM
COc1ccc(CC[C@H]2OC(=O)[C@@H]3CCCCN3C(=O)C(=O)C(C)(C)COC(=O)C=CCCN(C)C(=O)[C@H](CC(C)C)N(C)C(=O)[C@H]3CCCN3C(=O)[C@H](Cc3ccc([N+](=O)[O-])cc3)NC(=O)[C@H](c3ccccc3)NC(=O)CCC(=O)Nc3cccc2c3)cc1OC — IC50 (HUVEC; thymidine uptake, inhibitor): 130 ± 25 nM
O=C1/C(=N\c2ccc(Cl)cc2Br)c2ccccc2N1Cc1ccccc1 (mixture of isomers) — IC50 (L02; cell growth or viability, MTT; 48 h): 19400 nM
COc1ccccc1/C=C1\C(=O)Nc2ccc(Nc3nc(C)nc4ccccc34)cc21 — IC50 (H22; cell growth or viability, MTT): 1720 nM
COc1ccc(CC[C@H]2OC(=O)[C@@H]3CCCCN3C(=O)C(=O)C(C)(C)COC(=O)C=CCCN(C)C(=O)[C@H](CC(C)C)N(C)C(=O)[C@H]3CCCN3C(=O)[C@H](Cc3ccccc3)N(C)C(=O)[C@H](Cc3ccc(-c4ccccc4)cc3)NC(=O)CCC(=O)Nc3cccc2c3)cc1OC — IC50 (HUVEC; thymidine uptake, inhibitor): > 20000 nM
Cc1ncsc1-c1ccc(C(C)NC(=O)C2CC(O)CN2C(=O)C(NC(=O)CCCCCCCCCCN2CCCC(Nc3ncc(Cl)c(Nc4ccccc4S(=O)(=O)C(C)C)n3)C2)C(C)(C)C)cc1 (stereo not shown) — log2 fold change (22Rv1; RNA-seq, measured: ZFP69B mRNA; concentration not given; reference: DMSO): -1.53
CCN(CC)c1ccc2nc3ccc(NCCCN(C)CCCNC(=O)O[C@H]4CC[C@@]5(C)C(=CC[C@H]6[C@@H]7CC[C@H]([C@H](C)CCCC(C)C)[C@@]7(C)CC[C@@H]65)C4)cc3[n+](-c3ccccc3)c2c1 — IC50 (ARPE-19; cytotoxicity, CCK-8; 48 h): 1690 ± 320 nM
Cc1ccc2c(Cl)cc(Cl)c([O-])c2n1.Cc1ccc2c(Cl)cc(Cl)c([O-])c2n1.Clc1ccnc2c1ccc1c(Cl)ccnc12.[Co+2] — IC50 (HL-7702 normal hepatocytes; cell viability, MTT; 48 h): 65520 ± 450 nM
Cc1nc(N(C)c2ccc3c(c2)/C(=C/c2cn(C)c4ccccc24)C(=O)N3C)c2ccccc2n1 — IC50 (H22; cell growth or viability, MTT): 12800 nM
CC[C@H](C)[C@H](NC(=O)[C@H](CCCCN)NC(=O)[C@H](Cc1ccccc1)NC(=O)C[C@H](CC(C)C)NC(=O)CN)C(=O)N[C@H](CC(=O)N[C@@H](CCCCN)C(=O)N[C@@H](CCCCN)C(=O)N[C@H](CC(=O)N[C@@H](CC(C)C)C(=O)N[C@@H](CCCCN)C(=O)N[C@@H](CC(C)C)C(=O)N[C@H](CC(N)=O)Cc1ccccc1)[C@@H](C)CC)[C@@H](C)CC — IC50 (HUVEC; cytotoxicity): 4.3 µg/mL
C[OH+][Cu-2]12[O]C(c3cn(-c4ccccc4)nc3-c3ccc(Cl)cc3)=N[N+]1=C(C)c1c(cc(C)oc1=O)[O]2 (stereo not shown) — IC50 (Vero; cell growth or viability, MTT; 48 h): 93100 nM
CC(C)c1cccc(C(C)C)c1N1C(=O)C2=Nc3ccccc3CN2C1=S — IC50 (CCRF-CEM; resazurin; 72 h): 25100 ± 6490 nM
COc1ccc(CC[C@H]2OC(=O)[C@@H]3CCCCN3C(=O)C(=O)C(C)(C)COC(=O)C=CCCN(C)C(=O)[C@H](Cc3ccccc3)NC(=O)[C@H](Cc3ccccc3)N(C)C(=O)[C@@H]3CCCN3C(=O)[C@H](CC(C)C)N(C)C(=O)CCC(=O)Nc3cccc2c3)cc1OC — IC50 (HUVEC; thymidine uptake, inhibitor): > 20000 nM
O=C1/C(=N\c2ccc(Cl)cc2Br)c2ccccc2N1C(=O)c1ccccc1Br — IC50 (L02; cell growth or viability, MTT; 48 h): > 100000 nM
COc1ccc(CC[C@H]2OC(=O)[C@@H]3CCCCN3C(=O)C(=O)C(C)(C)COC(=O)C=CCCN(C)C(=O)[C@@H](CC(C)C)NC(=O)[C@@H](Cc3ccccc3)N(C)C(=O)[C@@H]3CCCN3C(=O)[C@H](CC(C)C)N(C)C(=O)CCC(=O)Nc3cccc2c3)cc1OC — IC50 (HUVEC; thymidine uptake, inhibitor): > 20000 nM
CN1CCCNC(=O)c2cccc(c2)C(=O)NCCCN(C)CCCNc2cccc3c2C(=O)c2cccc(c2C3=O)NCCC1 — log2 fold change (SAS; RNA-Seq, measured: VRK2 mRNA; 1 µM, 6 h; reference: untreated cells): -0.81
C=CC(=O)N1CCCC(n2c(=O)c3ncccc3n(Cc3ccc(Oc4ccccc4)cc3)c2=O)C1 (stereo not shown) — IC50 (HuT78; cell growth or viability, MTT; 72 h): 1500 nM
COc1ccc(CC[C@H]2OC(=O)[C@@H]3CCCCN3C(=O)C(=O)C(C)(C)COC(=O)C=CCCN(C)C(=O)[C@H](CC(C)C)N(C)C(=O)[C@@H]3CCCN3C(=O)[C@@H](Cc3ccccc3)N(C)C(=O)[C@H](Cc3ccccc3)NC(=O)CCC(=O)Nc3cccc2c3)cc1OC — IC50 (HUVEC; thymidine uptake, inhibitor): > 20000 nM
N#Cc1c(N)nc2c(c1-c1ccc(CO)o1)Cc1cccc(O)c1-2 — IC50 (HuT78; cell growth or viability, ATP luminescence): 20900 nM
C[C@H](c1ccccc1)N1C(=O)C2=Nc3cc(Cl)ccc3CN2C1=S — IC50 (CCRF-CEM; cell growth or viability, resazurin; 72 h): 228 nM
CC(C)c1ccc(N(C)c2ccc3c(c2)OCC[C@H]3CNc2cnccc2C(=O)O)cc1 — IC50 (MDA-MB-453; cell growth or viability, ATP luminescence; 7 days): 10.4 nM
Cc1cnc2nc1Nc1cc(ccc1F)COC/C=C/COCc1cc(ccc1OCCN1CCCC1)N2 — IC50 (HEL 92.1.7 JAK2 V617F; cell growth, CCK-8): 5320 nM
C=CC(=O)Nc1cccc(Cn2ncc3cnc(Nc4cnn(CCOC)c4)nc32)c1 — percent of control (RIOK1 human; binding, KINOMEscan; 100 nM; lower = stronger binding): 13%
Nc1ncc(-c2cc(-c3cnn(CC(F)(F)F)c3)ncc2F)nc1C(=O)NC1CNCC(F)C1 (stereo not shown) — remaining binding (TEC; KINOMEscan competition binding; 1 µM; reference: DMSO control): 100%
C[C@H](c1ccccc1)N1C(=O)C2=Nc3ccc(Br)cc3CN2C1=S — IC50 (CCRF-CEM; cell growth or viability, resazurin; 72 h): 483 nM

A few entries again:
C=CC(=O)Nc1cccc(Cn2ncc3cnc(Nc4cnn(CCOC)c4)nc32)c1 — percent of control (RIOK1 human; binding, KINOMEscan; 100 nM; lower = stronger binding): 13%
C=CC(=O)N1CCCC(n2c(=O)c3ncccc3n(Cc3ccc(Oc4ccccc4)cc3)c2=O)C1 (stereo not shown) — IC50 (HuT78; cell growth or viability, MTT; 72 h): 1500 nM
Cc1cnc2nc1Nc1cc(ccc1F)COC/C=C/COCc1cc(ccc1OCCN1CCCC1)N2 — IC50 (HEL 92.1.7 JAK2 V617F; cell growth, CCK-8): 5320 nM
C[C@H](c1ccccc1)N1C(=O)C2=Nc3ccccc3CN2C1=S — IC50 (CCRF-CEM; resazurin; 72 h): 520 ± 10 nM
CC[C@H](C)[C@H](NC(=O)[C@H](CCCCN)NC(=O)[C@H]1CCC[C@@H]1NC(=O)[C@H](CC(C)C)NC(=O)CN)C(=O)N[C@H](CC(=O)N[C@@H](CCCCN)C(=O)N[C@@H](CCCCN)C(=O)N[C@H]1CCC[C@@H]1C(=O)N[C@@H](C)C(=O)N[C@@H](CCCCN)C(=O)N[C@@H](CO)CC(=O)N[C@@H](Cc1ccccc1)C(N)=O)[C@@H](C)CC — IC50 (HUVEC; cytotoxicity): 122 µg/mL
CC(C)c1ccc(N(C)c2ccc3c(c2)OCC[C@H]3CNc2cnccc2C(=O)O)cc1 — IC50 (MDA-MB-453; cell growth or viability, ATP luminescence; 7 days): 10.4 nM
COC1CN([C@H]2CC[C@H]([C@@]3(C)Oc4c(Cl)cc(C(=O)NCc5c(SC)cc(C)[nH]c5=O)c(C)c4O3)CC2)C1 — log2 fold change (RNA-seq, measured: TMEM108 mouse homolog; mouse, HT-1376 xenograft, whole blood; dose not given; reference: vehicle): 2.6
